Assay results gathered from unrelated publications.
A part holds a random share of what one study measured. Changes are numbered by the printed parent chain.

Block 1
Target: CCND3, cyclin fold, Cln2 fusion (human)
Method: yeast growth competition, sequencing
Medium: yeast
Setting: weak parent motif
Relative to: not given
Direction: higher = stronger binding
Parent: MASTL docking peptide (human); PMIAKNLMCELDE; partner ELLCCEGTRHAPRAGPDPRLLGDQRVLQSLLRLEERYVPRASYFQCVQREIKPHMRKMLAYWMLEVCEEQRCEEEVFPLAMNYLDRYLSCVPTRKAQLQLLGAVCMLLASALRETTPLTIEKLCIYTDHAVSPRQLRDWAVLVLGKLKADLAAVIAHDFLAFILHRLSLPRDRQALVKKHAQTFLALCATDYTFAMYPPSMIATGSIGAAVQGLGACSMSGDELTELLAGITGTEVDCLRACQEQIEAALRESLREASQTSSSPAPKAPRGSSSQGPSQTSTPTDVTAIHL
For `C9R`, “normalised enrichment score” read 0.0565.
`D12K`: “normalised enrichment score” 0.153.
Under “normalised enrichment score”, `K5G` is recorded as -0.4.
Under “normalised enrichment score”, `E10D` is recorded as -0.169.
`E10N`: “normalised enrichment score” 0.219.
`C9V` — result for “normalised enrichment score”: 0.0191.

Block 2
Target: Fragile X messenger ribonucleoprotein 1, C-terminal low-complexity region (Fmr1, Mus musculus, UniProt P35922)
Method: RNA Bind-n-Seq
Form: RNA
Medium: in vitro
Concentration: 200 nM
Setting: whole 134-nt RNA, ends assumed
Added: 150 mM LiCl
Relative to: input library
Direction: higher = stronger binding
All molecules: 7-deaza-guanosine replaces G
The log2 enrichment of `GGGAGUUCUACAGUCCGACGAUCCACAGACAACACGCACCCACACAGACACAGAGGGAAGGGGUUGGGAUGGGGACAGGGUGCACAGCAGGGCGGAAAAGGACCCCAGCCCCUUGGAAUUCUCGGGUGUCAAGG` is reported as 1.76.
`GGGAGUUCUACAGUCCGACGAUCACCAUGCAGGUGGGCAUCUUUGGGAAGUGAGGCAAGGGGGGGAUAGGGAGGGGGGUAACACUUUGGGAACAGGUGGUCCCAGGUCGUUUCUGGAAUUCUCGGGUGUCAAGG` gave a log2 enrichment of 1.54.
The log2 enrichment of `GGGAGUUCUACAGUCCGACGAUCAAGUCCUGUGCUACACAUCGUAUGUACCGAAUCGGGUUUUGGUUUUGGUUUUGGGGAAAGUAUUAUGUUACGCCGUUCGGAUCUGCACUUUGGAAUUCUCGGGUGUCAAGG` is reported as -1.82.
For `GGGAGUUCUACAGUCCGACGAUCUUUCACAGAGAAGCAAAUGCUGGCACAAGGAUACCCUGCUUACACGACAUCGUGCGCCUGGCUGGGGUACUCAGAUGACACGUUGAAGCAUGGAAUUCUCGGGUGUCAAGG`, the log2 enrichment was -0.773.
For `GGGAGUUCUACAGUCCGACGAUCUGGCCCUCGUGGCAUGCGGGGAGGAAGAGGUGGCCUCAUGGAUCGUGGUGGUCCCGGUGGAAUGUUCAGAGGUGGCCGUGGUGGAGACAGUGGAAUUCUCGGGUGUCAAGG`, the log2 enrichment was -0.524.

Block 3
Target: Sal-like protein 4, full length isoform A (SALL4, Homo sapiens, UniProt Q9UJQ4, residues 1-1053)
UniProt Q9UJQ4, sequence (whole entry, looked up): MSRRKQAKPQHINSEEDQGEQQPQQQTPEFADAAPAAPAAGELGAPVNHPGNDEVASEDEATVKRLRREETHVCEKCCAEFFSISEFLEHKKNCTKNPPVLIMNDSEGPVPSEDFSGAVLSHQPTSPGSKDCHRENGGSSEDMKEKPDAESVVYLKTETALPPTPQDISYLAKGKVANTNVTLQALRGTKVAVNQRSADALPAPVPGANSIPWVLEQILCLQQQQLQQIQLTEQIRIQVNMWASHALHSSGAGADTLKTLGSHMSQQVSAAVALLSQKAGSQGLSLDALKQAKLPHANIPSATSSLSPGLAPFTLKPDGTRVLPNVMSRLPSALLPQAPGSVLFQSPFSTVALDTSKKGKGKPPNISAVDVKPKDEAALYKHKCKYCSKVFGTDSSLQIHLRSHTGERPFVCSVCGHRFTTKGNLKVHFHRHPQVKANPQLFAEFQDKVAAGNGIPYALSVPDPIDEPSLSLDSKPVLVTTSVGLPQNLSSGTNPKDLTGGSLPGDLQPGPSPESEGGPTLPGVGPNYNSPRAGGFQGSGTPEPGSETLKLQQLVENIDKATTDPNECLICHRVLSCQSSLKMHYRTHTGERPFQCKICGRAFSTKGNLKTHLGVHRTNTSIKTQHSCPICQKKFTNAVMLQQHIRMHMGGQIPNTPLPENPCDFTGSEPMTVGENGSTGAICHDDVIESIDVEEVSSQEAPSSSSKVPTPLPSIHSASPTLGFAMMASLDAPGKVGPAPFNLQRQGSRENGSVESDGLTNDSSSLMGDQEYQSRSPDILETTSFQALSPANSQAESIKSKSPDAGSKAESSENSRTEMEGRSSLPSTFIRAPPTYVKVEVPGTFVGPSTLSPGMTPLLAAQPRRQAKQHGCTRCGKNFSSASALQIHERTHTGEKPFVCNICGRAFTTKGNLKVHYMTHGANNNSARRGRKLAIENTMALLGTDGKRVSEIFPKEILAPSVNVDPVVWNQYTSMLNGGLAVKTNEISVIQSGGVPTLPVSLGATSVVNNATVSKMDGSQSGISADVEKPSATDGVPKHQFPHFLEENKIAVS
Method: universal PBM
Form: double-stranded DNA, one strand shown
Medium: in vitro
Concentration: 600 nM
Setting: 8-mer, flanks averaged, mean of replicates
Direction: higher = stronger binding
For `GATATGCC`, the E-score was -0.0597.
The E-score of `AGTCCTAC` is reported as -0.084.
With `GCGGGCGA` the E-score was -0.353.
For `GACACATC`, the E-score was -0.0337.

Mixed results
`PhoQ, residues 284 288 289 292 302 303 SLSLLA` has a fold induction of 5.67 (PhoP, residues 12 14 15 18 19 LHSVW (Escherichia coli, UniProt P23836); Sort-seq, item: YFP reporter; E. coli; PhoQ-PhoP variant library, added: 10 µM Mg2+; relative to: high Mg2+ state, higher = stronger signaling).

Excerpt of the above (block 3):
For `GATATGCC`, the E-score was -0.0597.
The E-score of `AGTCCTAC` is reported as -0.084.
